Published values collected from several papers.
Several values in a cell are separate wells, animals, samples, runs or records. ± gives the spread as reported.
rep main protease: Replicase polyprotein 1ab, main protease (rep, Severe acute respiratory syndrome coronavirus 2, UniProt P0DTD1)
gag-pol K653R reverse transcriptase: Gag-Pol polyprotein, reverse transcriptase (gag-pol, Human immunodeficiency virus type 1 group M subtype B, UniProt P04585, K653R)
uncharacterized protein: uncharacterized protein (Anopheles coluzzii, UniProt A0A6E8VQK1)
UniProt P04756, sequence (whole entry, looked up): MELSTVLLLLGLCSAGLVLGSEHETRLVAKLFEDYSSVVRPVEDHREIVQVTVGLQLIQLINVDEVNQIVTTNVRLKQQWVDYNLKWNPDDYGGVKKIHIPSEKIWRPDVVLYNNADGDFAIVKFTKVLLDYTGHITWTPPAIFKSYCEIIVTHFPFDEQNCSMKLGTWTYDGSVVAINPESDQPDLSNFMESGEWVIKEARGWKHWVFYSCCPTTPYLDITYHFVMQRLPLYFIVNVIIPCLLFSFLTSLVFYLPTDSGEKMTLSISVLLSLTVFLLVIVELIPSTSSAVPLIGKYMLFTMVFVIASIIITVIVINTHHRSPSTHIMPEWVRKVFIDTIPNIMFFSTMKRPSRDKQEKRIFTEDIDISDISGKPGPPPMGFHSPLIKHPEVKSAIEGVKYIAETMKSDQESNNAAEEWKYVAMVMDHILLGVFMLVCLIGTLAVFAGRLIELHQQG
UniProt P02716, sequence (whole entry, looked up): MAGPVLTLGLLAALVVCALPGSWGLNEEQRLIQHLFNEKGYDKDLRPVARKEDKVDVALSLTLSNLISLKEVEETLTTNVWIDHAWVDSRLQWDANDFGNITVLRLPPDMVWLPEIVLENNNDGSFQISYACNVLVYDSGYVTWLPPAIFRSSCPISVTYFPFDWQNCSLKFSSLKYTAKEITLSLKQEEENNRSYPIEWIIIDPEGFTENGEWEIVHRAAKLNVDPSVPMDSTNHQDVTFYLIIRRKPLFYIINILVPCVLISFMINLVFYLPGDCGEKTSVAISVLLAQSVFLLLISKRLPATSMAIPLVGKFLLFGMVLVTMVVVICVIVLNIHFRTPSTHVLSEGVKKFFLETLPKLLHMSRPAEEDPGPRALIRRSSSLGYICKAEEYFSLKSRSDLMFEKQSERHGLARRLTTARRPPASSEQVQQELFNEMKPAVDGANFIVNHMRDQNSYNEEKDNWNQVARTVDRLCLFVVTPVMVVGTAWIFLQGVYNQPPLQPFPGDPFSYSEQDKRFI
UniProt P20782, sequence (whole entry, looked up): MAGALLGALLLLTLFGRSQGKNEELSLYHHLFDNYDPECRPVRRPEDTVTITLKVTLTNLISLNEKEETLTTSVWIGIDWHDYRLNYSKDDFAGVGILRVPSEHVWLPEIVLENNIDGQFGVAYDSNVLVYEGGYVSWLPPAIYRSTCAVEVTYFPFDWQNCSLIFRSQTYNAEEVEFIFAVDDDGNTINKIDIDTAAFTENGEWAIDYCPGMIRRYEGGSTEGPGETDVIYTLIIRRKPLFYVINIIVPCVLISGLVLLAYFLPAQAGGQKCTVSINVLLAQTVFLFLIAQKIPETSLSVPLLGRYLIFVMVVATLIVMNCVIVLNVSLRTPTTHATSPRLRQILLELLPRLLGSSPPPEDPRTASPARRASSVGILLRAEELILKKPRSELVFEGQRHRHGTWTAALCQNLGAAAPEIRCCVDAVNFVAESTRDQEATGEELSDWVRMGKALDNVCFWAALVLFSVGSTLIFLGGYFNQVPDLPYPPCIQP

Substance	target	test	system	setting	how to read	quantity	result
O=C(N[C@@H]1CC[C@@H]2CCN(c3nc4[nH]ncc4c(=O)[nH]3)[C@H]1C2)c1ccc2c(c1)C(=O)NCC2	rep main protease	enzyme activity, inhibitor	–	5 µM, run 1	–	inhibition	11.7%
COC(=O)C=Cc1ccccc1	rep main protease	reporter gene (Gaussia luciferase), inhibitor	–	20 µM	–	inhibition	2.8%
CCc1c(C(=O)C(N)=O)c2c(OCC(=O)O)cccc2n1Cc1ccccc1	Daboia russelii venom phospholipase A2	enzyme activity, inhibitor	PB population	0.01 µM, together with: NOB substrate	reference: venom alone	remaining activity	100% and 96.8%
CC[C@@H](Oc1nc(Oc2cccc(-c3cccc(CN)c3)c2)c(F)cc1F)C(=O)O	rep main protease	viral replication, mKate2 reporter	SARS-CoV-2	20 µM	–	inhibition	-0.428%
Nc1ccn([C@H]2C[C@H](O)[C@@H](COP(=O)(O)OP(=O)(O)OP(=O)(O)O)O2)c(=O)n1	Gag-Pol polyprotein, reverse transcriptase (gag-pol, Human immunodeficiency virus type 1 group M subtype B, UniProt P04585)	substrate	–	misinsertion opposite template T	–	Km	101 ± 51.9 µM
COc1cc2c3cc1Oc1cc(ccc1O)C[C@@H]1c4c(cc(OC)c(O)c4Oc4ccc(cc4)C[C@@H]3N(C)CC2)CC[N+]1(C)C	Chrnd/Chrna1/Chrne (Mus musculus, UniProt P02716+P04756+P20782)	end-plate current peak height, two-electrode voltage clamp	mouse hemidiaphragm	0.1 µM, AChE poisoned	–	inhibition	28%
Cc1cn([C@H]2C[C@H](O)[C@@H](COP(=O)(O)OP(=O)(O)OP(=O)(O)O)O2)c(=O)[nH]c1=O	gag-pol K653R reverse transcriptase	nucleotide misinsertion, steady-state kinetics	–	K66R mutant RT, together with: opposite template T	–	Km	888 ± 235 µM
Cc1nc(C(=O)N2CC[C@H](N[C@@H]3N=C(c4ccccc4)Nc4ccccc43)C2)cc(=O)[nH]1	rep main protease	enzyme activity, inhibitor	–	5 µM, mean of runs	–	inhibition	12%
CSCC[C@H](NC(=O)[C@H](CCCNC(=N)N)NC(=O)[C@H](Cc1ccccc1)NC(=O)[C@H](CS)NC(=O)[C@H](C)NC(=O)[C@@H](NC(=O)[C@@H](NC(=O)[C@H](C)NC(=O)[C@H](CCCNC(=N)N)NC(=O)[C@H](CCCNC(=N)N)NC(=O)[C@H](CCCNC(=N)N)NC(=O)[C@H](CCC(N)=O)NC(=O)[C@H](CCCCN)NC(=O)[C@H](CO)NC(=O)[C@H](CC(C)C)NC(=O)[C@H](CC(C)C)NC(=O)[C@H](CCCCN)NC(=O)[C@H](Cc1c[nH]cn1)NC(=O)[C@H](Cc1c[nH]c2ccccc12)NC(=O)[C@@H](NC(=O)[C@H](C)NC(=O)[C@H](CCCCN)NC(=O)[C@H](CCCCN)NC(=O)[C@H](CO)NC(=O)[C@H](CCCCN)NC(C)=O)C(C)C)C(C)C)C(C)C)C(=O)N[C@H](C(=O)N1CCC[C@H]1C(=O)N[C@@H](CC(C)C)C(=O)N[C@@H](Cc1ccc(O)cc1)C(=O)N[C@@H](CC(N)=O)C(N)=O)[C@@H](C)O	calmodulin 1-80 sites I and II	calcium binding, Phe fluorescence titration	–	12 µM, pH 7.4, 22 °C, together with: 6 µM calmodulin	–	apparent ΔG1	-6.93 ± 0.13 kcal/mol
CCCC(C)NC(=O)c1ccc(Cl)c(Cl)c1 (stereo not shown)	rep main protease	viral replication, mKate2 reporter	SARS-CoV-2	20 µM	–	inhibition	0.196%
O=C(NC[C@@H]1Cc2ccccc2CN1C(=O)[C@@H]1CCCS(=O)(=O)C1)c1cn[nH]c(=O)c1	rep main protease	enzyme activity, inhibitor	–	5 µM, mean of runs	–	inhibition	12%
CCN(CC)c1nc(C)cc(OP(=S)(OC)OC)n1	uncharacterized protein	enzyme activity, inhibitor	Sf9 cell homogenate	0.04587 µM, 0.1667 h, together with: α-naphthyl acetate substrate	reference: no inhibitor	remaining activity	112%
Cc1cc(Nc2ncc(Cl)c(Nc3ccccc3S(=O)(=O)C(C)C)n2)c(OC(C)C)cc1C1CCNCC1	rep main protease	reporter gene (mKate2), inhibitor	–	20 µM	–	inhibition	-1.26%
O=C1CC[C@@H](CCC(=O)N2CCCC[C@@H](C3CN(C(=O)c4cnc5n[nH]nc5c4)C3)C2)CN1	rep main protease	enzyme activity, inhibitor	–	5 µM	–	inhibition	11.5%
C[C@@H]1CC[C@]2(C(=O)O[C@@H]3O[C@H](CO)[C@@H](O)[C@H](O)[C@H]3O)CC[C@]3(C)C(=CC[C@@H]4[C@@]5(C)C[C@@H](O)[C@H](O)C(C)(C)[C@@H]5CC[C@]43C)[C@@H]2[C@]1(C)O	rep main protease	reporter gene (Gaussia luciferase), inhibitor	–	20 µM	–	inhibition	1.77%
Nc1ncnc2c1ncn2[C@H]1C[C@H](O)[C@@H](COP(=O)(O)OP(=O)(O)OP(=O)(O)O)O1	Gag-Pol polyprotein, reverse transcriptase (gag-pol, Human immunodeficiency virus type 1 group M subtype B, UniProt P04585, K653N)	substrate	–	K66N mutant, together with: G:A mismatched primer template	–	kcat	0.8 ± 0.23 min⁻¹
COC(=O)N[C@H](C(=O)N[C@@H](Cc1ccccc1)[C@@H](O)CN(Cc1ccc(-c2ccccn2)cc1)NC(=O)[C@@H](NC(=O)OC)C(C)(C)C)C(C)(C)C	rep main protease	reporter gene (mKate2), inhibitor	–	20 µM	–	inhibition	0.121%
O=C(NC[C@H](NC(=O)c1cnoc1-c1ccccc1)c1ccc2ccccc2c1)c1cn[nH]n1	rep main protease	enzyme activity, inhibitor	–	5 µM, run 2	–	inhibition	13.8%
Nc1nc2c(ncn2[C@H]2C[C@H](O)[C@@H](COP(=O)(O)OP(=O)(O)OP(=O)(O)O)O2)c(=O)[nH]1	gag-pol K653R reverse transcriptase	nucleotide misinsertion, steady-state kinetics	–	K66R mutant RT, together with: opposite template T	–	Km	14.2 ± 8.07 µM
CN1CCCC1c1cc(C(=O)N2C[C@@H](F)C[C@H]2CNC(=O)c2cc3c(=O)[nH]ccn3n2)n[nH]1 (stereo partly shown)	rep main protease	enzyme activity, inhibitor	–	5 µM	–	inhibition	14.8%
CCC[C@H](N[C@H]1CCc2cc(F)cc(F)c2C1)C(=O)Nc1cn(C(C)(C)CNCC(C)(C)C)cn1	rep main protease	reporter gene (mKate2), inhibitor	–	20 µM	–	inhibition	-0.0529%
O=C(c1ccc2c(c1)COC2)N1CCCC[C@H](C2CN(C(=O)c3cncc4[nH]cnc34)C2)C1	rep main protease	enzyme activity, inhibitor	–	5 µM, run 1	–	inhibition	14.2%
CCOC(=O)CC(SP(=S)(OC)OC)C(=O)OCC (stereo not shown)	uncharacterized protein	enzyme activity, inhibitor	Sf9 cell homogenate	45.45 µM, 0.1667 h, together with: α-naphthyl acetate substrate	reference: no inhibitor	remaining activity	106%
Cc1ccncc1C(=O)N[C@@H](CNC(=O)C1=NOCC1)c1ccc2ccccc2c1	rep main protease	enzyme activity, inhibitor	–	5 µM, run 1	–	inhibition	10%
voxilaprevir	rep main protease	enzyme activity, Gaussia luciferase reporter	SARS-CoV-2	20 µM	–	inhibition	-0.391%

Excerpt of the above:
Substance	target	test	system	setting	how to read	quantity	result
O=C(NC[C@H](NC(=O)c1cnoc1-c1ccccc1)c1ccc2ccccc2c1)c1cn[nH]n1	rep main protease	enzyme activity, inhibitor	–	5 µM, run 2	–	inhibition	13.8%
Nc1nc2c(ncn2[C@H]2C[C@H](O)[C@@H](COP(=O)(O)OP(=O)(O)OP(=O)(O)O)O2)c(=O)[nH]1	gag-pol K653R reverse transcriptase	nucleotide misinsertion, steady-state kinetics	–	K66R mutant RT, together with: opposite template T	–	Km	14.2 ± 8.07 µM
CN1CCCC1c1cc(C(=O)N2C[C@@H](F)C[C@H]2CNC(=O)c2cc3c(=O)[nH]ccn3n2)n[nH]1 (stereo partly shown)	rep main protease	enzyme activity, inhibitor	–	5 µM	–	inhibition	14.8%
